# Results collected from several papers.
# Sequences of proteins named here, by UniProt entry; tags and fusion partners are left off. Residues count along the entry.
# UniProt P18031, 1-321 limits assumed: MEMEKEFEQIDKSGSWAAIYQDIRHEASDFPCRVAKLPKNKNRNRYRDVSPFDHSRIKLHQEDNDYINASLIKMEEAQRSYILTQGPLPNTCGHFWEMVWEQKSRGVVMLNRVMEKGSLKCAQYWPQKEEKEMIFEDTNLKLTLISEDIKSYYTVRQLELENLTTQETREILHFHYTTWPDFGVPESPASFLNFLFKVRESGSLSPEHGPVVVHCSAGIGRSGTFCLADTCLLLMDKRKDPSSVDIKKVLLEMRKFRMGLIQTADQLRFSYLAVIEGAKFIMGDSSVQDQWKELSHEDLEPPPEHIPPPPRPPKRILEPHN
# UniProt P18031, whole entry: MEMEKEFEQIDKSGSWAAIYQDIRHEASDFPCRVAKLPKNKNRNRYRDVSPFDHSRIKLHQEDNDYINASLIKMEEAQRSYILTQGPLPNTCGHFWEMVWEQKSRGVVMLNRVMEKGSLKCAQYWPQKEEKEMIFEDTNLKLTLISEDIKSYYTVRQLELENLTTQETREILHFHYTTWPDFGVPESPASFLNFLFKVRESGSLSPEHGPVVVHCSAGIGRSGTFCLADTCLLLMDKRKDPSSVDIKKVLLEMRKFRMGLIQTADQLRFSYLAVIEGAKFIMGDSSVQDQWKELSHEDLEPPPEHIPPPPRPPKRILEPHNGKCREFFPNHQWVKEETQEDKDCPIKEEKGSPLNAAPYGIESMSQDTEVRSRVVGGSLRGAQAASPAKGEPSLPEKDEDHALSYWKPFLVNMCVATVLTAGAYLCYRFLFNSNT
# UniProt P17706, whole entry: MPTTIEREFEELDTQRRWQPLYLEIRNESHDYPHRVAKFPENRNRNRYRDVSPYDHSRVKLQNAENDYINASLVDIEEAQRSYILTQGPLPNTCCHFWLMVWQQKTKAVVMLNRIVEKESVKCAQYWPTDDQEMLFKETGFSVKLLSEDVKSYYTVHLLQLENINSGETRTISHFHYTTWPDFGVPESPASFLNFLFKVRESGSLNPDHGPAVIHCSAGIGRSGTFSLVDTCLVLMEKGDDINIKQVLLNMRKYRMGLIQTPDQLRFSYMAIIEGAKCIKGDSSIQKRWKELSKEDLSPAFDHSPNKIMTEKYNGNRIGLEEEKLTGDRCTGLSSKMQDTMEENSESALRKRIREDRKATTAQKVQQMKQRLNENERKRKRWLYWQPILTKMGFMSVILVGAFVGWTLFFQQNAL
# UniProt Q16539, whole entry: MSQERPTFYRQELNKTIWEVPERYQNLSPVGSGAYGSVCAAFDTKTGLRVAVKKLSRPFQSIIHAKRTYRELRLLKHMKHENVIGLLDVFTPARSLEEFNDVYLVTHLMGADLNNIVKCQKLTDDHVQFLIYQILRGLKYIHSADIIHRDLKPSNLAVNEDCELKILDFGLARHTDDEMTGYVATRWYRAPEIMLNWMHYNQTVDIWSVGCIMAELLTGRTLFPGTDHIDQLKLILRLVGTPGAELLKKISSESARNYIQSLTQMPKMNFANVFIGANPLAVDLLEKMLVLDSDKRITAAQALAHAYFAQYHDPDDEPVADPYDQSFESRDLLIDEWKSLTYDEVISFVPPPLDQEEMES
# UniProt P30419, whole entry: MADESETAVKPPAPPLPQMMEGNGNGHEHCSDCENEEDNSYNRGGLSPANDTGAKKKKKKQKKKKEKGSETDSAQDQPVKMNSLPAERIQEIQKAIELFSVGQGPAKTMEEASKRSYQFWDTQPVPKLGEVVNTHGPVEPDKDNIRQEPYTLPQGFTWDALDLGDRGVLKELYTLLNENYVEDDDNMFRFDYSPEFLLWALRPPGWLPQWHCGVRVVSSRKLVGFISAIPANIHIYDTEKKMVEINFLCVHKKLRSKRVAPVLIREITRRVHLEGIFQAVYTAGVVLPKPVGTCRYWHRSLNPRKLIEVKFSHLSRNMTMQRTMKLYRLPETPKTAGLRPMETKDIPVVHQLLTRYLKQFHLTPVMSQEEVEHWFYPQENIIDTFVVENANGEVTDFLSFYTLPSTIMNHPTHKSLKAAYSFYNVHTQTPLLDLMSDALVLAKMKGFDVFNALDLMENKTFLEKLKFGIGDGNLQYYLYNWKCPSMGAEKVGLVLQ
# UniProt P0C7A3, whole entry: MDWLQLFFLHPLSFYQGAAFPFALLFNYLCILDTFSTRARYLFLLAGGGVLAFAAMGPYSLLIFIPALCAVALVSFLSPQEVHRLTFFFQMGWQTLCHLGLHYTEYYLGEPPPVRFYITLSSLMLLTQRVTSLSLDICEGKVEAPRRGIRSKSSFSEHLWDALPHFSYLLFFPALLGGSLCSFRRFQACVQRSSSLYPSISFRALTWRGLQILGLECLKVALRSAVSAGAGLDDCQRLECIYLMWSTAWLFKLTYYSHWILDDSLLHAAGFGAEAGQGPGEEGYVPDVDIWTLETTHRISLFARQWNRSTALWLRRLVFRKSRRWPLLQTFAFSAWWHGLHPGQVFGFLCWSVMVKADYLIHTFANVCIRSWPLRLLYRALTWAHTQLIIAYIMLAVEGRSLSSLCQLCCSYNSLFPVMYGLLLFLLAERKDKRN
# UniProt O60502, whole entry: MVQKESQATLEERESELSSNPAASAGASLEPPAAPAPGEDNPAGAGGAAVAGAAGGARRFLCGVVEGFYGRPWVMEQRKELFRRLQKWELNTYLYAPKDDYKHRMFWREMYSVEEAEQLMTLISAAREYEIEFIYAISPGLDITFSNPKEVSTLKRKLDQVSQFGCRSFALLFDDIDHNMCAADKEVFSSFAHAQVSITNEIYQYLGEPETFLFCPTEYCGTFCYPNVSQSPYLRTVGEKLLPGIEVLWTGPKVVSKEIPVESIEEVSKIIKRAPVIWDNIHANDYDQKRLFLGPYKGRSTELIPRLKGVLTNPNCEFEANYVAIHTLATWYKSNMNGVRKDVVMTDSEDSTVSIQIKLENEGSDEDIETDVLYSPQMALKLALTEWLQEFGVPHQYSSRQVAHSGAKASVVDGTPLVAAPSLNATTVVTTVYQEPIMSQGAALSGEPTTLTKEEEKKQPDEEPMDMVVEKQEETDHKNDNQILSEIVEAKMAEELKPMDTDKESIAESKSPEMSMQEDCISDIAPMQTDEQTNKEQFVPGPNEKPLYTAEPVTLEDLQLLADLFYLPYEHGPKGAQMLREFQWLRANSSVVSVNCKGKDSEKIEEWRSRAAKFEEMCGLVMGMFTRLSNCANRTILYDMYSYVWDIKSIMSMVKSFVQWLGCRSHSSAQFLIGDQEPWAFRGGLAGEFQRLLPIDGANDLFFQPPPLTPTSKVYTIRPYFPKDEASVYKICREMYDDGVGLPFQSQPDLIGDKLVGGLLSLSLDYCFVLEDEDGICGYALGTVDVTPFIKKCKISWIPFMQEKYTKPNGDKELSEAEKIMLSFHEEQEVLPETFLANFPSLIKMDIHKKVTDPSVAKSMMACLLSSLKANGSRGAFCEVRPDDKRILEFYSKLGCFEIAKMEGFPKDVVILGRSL
# Compare with care: the assays were run in different laboratories. Numbers after ± are the reported error.
# PTPN1: Tyrosine-protein phosphatase non-receptor type 1 (PTPN1, Homo sapiens, UniProt P18031)
Compound,target or system,assay,setting,endpoint,value
CCCC[C@H](NC(=O)[C@H](Cc1ccccc1)NC(C)=O)C(=O)NCC(=O)N[C@@H](C)C(=O)N[C@@H](Cc1cc(=O)oc2cc(OP(=O)(O)O)ccc12)C(=O)N[C@@H](CCC(N)=O)C(=O)N[C@@H](CC(C)C)C(=O)N[C@@H](CCC(=O)O)C(=O)N[C@@H](CCC(=O)O)C(N)=O,"PTPN2 (Homo sapiens, UniProt P17706)","peptide hydrolysis, substrate",,Km,270 ± 50 µM
C[C@H](NC(=O)[C@H](C)NC(=O)[C@H](Cc1ccc(OP(=O)(O)O)cc1)NC(=O)[C@H](Cc1ccccc1)NC(=O)[C@H](CCC(=O)O)NC(=O)[C@H](Cc1cc(F)c(O)c(F)c1)NC(=O)[C@H](CCC(=O)O)NC(=O)[C@@H](N)CCCNC(=N)N)C(N)=O,PTPN1,"enzyme activity, substrate",pH 7.4,Km,14 ± 2 µM
CC(=O)N[C@@H](CCCNC(=N)N)C(=O)N[C@H](C(=O)N[C@@H](CC(C)C)C(=O)N[C@@H](C)C(=O)N[C@@H](C)C(=O)N[C@@H](Cc1ccc(OP(=O)(O)O)cc1)C(=O)N[C@@H](C)C(=O)N[C@@H](C)C(=O)N[C@@H](C)C(=O)N[C@@H](C)C(N)=O)[C@@H](C)O,PTPN1,"substrate, continuous UV","pH 7.4, multiply phosphorylated peptides apparent",Km,66 ± 17 µM
N#Cc1c(-c2ccc(Cl)cc2Cl)n(-c2nc(-c3ccc(Cl)cc3)c3c(NC(=O)c4ccccc4)nnc-3[nH]2)[nH]c1=O,SF-295,SRB,10 µM,cell growth,-13.9%
CC[C@H](C)[C@H](NC(=O)CNC(=O)[C@H](CCCNC(=N)N)NC(=O)[C@@H]1CCCN1C(=O)[C@H](CC(=O)O)NC(C)=O)C(=O)N[C@@H](Cc1ccc(OP(=O)(O)O)cc1)C(=O)N[C@@H](CC(=O)O)C(=O)N[C@@H](CCC(N)=O)C(=O)N[C@H](C(=O)N[C@@H](C)C(=O)NCC(N)=O)C(C)C,PTPN1,substrate,"pH 7.4, catalytic domain",Km,7.1 ± 0.4 µM
CC(C)C[C@H](NC(=O)[C@H](C)NC(=O)[C@H](CCCNC(=N)N)NC(=O)[C@H](CCCNC(=N)N)NC(=O)[C@H](CCCNC(=N)N)NC(=O)[C@H](C)NC(=O)[C@H](CC(C)C)NC(=O)[C@H](CCCNC(=N)N)NC(=O)[C@H](CO)NC(=O)[C@H](CCCCN)NC(=O)[C@H](CO)NC(=O)Cn1cc(COC(=O)[C@]2(C)C=C(C(=O)OC(C)(C)C)C(=O)CC2)nn1)C(=O)O,"MAPK14 (Homo sapiens, UniProt Q16539)","enzyme activity, inhibitor, D-SENSOR",0.2743 µM,normalized kinase activity,0.595
CCOC(=O)c1c(-c2ccc(Cl)cc2Cl)n(-c2nc(-c3ccc(Cl)cc3)c3c(NC(=O)c4ccccc4)nnc-3[nH]2)[nH]c1=O,SF-539,SRB,10 µM,cell growth,-4.38%
NCC(=O)N[C@@H](CO)C(=O)N[C@@H](CS)C(=O)N[C@@H](CS)C(=O)N[C@@H](CO)C(=O)N[C@@H](CS)C(=O)N1CCC[C@H]1C(=O)N[C@@H](CC(=O)O)C(=O)O,"NMT1 (Homo sapiens, UniProt P30419)",substrate,,Km,28.2 µM
CC(C)C[C@H](NC(=O)[C@H](Cc1ccccc1)NC(=O)[C@H](CN)NC(=O)[C@H](CO)NC(=O)CN)C(=O)N[C@@H](CO)C(=O)N1CCC[C@H]1C(=O)N[C@@H](CCC(=O)O)C(=O)N[C@@H](Cc1c[nH]cn1)C(=O)N[C@@H](CCC(N)=O)C(=O)NCCCCCC(=O)N[C@@H](CCCCNC(=O)CCCC[C@@H]1SC[C@@H]2NC(=O)N[C@@H]21)C(=O)NCC(=O)O,"Membrane-bound ghrelin O-acyltransferase MBOAT4 (Mus musculus, UniProt P0C7A3)",substrate,pH 7,Km,33.9 ± 9.6 µM
C=C(C)C(=O)Nc1ccc(-c2c(-c3ccc(Oc4nccc(C)n4)c(F)c3)c3c(N)ncnc3n2C)cc1,EN,"cell growth, CellTiter-Glo",120 h,IC50,0.279 µM
CC(=O)N[C@@H](CCC(=O)O)C(=O)N[C@@H](CCC(=O)O)C(=O)N[C@@H](CC(=O)O)C(=O)N[C@@H](CC(N)=O)C(=O)N[C@@H](C)C(=O)N[C@@H](Cc1c[nH]c2ccccc12)C(=O)N[C@@H](Cc1ccc(OP(=O)(O)O)cc1)C(=O)N[C@@H](C)C(=O)N[C@@H](C)C(N)=O,PTPN1,substrate,"pH 7.4, catalytic domain",Km,1.3 ± 0.1 µM
CC(=O)N[C@@H](C)C(=O)N[C@H](C(=O)N[C@@H](Cc1c[nH]c2ccccc12)C(=O)N[C@@H](CCC(=O)O)C(=O)N[C@@H](Cc1ccccc1)C(=O)N[C@@H](Cc1ccc(OP(=O)(O)O)cc1)C(=O)N[C@@H](Cc1ccc(OP(=O)(O)O)cc1)C(=O)N[C@@H](C)C(=O)N[C@@H](C)C(N)=O)C(C)C,PTPN1,"substrate, continuous UV","pH 7.4, multiply phosphorylated peptides apparent",Km,2.9 ± 0.6 µM
CC(=O)N[C@H]1[C@H](OC[C@H](NC(=O)[C@H](Cc2ccc(O)cc2)NC(=O)[C@@H]2CCCN2C(=O)[C@@H](NC(=O)[C@H](CO)NC(C)=O)C(C)C)C(=O)N[C@@H](CO)C(=O)N[C@@H](C)C(=O)N[C@@H](CCC(N)=O)C(=O)N[C@@H](CO)C(N)=O)O[C@H](CO)[C@@H](O)[C@@H]1O,"Protein O-GlcNAcase (OGA, Homo sapiens, UniProt O60502)",substrate,"pH 7.5, 37 °C, with: 4MU-GlcNAc 200 µM competition",Km,4800 ± 300 µM
CC[C@H](C)[C@H](NC(=O)[C@H](CCCNC(=N)N)NC(=O)[C@H](CCCNC(=N)N)NC(C)=O)C(=O)N[C@@H](CO)C(=O)N[C@H](C(=O)N[C@@H](Cc1ccc(OP(=O)(O)O)cc1)C(=O)N[C@@H](C)C(=O)N[C@@H](C)C(N)=O)[C@@H](C)O,PTPN1,"substrate, continuous UV","pH 7.4, multiply phosphorylated peptides apparent",Km,90 ± 7 µM
CC(=O)N[C@@H](C)C(=O)N[C@@H](C)C(=O)N[C@@H](Cc1ccc(OP(=O)(O)O)cc1)C(=O)N[C@@H](CC(=O)O)C(=O)N[C@@H](CC(C)C)C(=O)N[C@@H](CC(=O)O)C(=O)N[C@@H](CCC(=O)O)C(=O)N[C@@H](Cc1ccc(O)cc1)C(N)=O,PTPN1,substrate,"pH 7.4, catalytic domain",Km,1.9 ± 0.3 µM
CC(=O)N[C@@H](C)C(=O)N[C@@H](C)C(=O)N[C@@H](C)C(=O)N[C@@H](C)C(=O)N[C@@H](C)C(=O)N[C@@H](Cc1ccc(OP(=O)(O)O)cc1)C(=O)N[C@@H](CCCNC(=N)N)C(=O)N[C@@H](Cc1c[nH]cn1)C(=O)N[C@@H](CCCNC(=N)N)C(=O)N[C@@H](CCCNC(=N)N)C(N)=O,PTPN1,"substrate, continuous UV","pH 7.4, multiply phosphorylated peptides apparent",Km,234 ± 37 µM
CC(=O)N[C@@H](C)C(=O)N[C@@H](C)C(=O)N[C@@H](Cc1ccc(OP(=O)(O)O)cc1)C(=O)N[C@@H](C)C(=O)N[C@@H](C)C(=O)N[C@@H](CC(=O)O)C(=O)N[C@@H](CC(=O)O)C(=O)N[C@@H](C)C(N)=O,PTPN1,substrate,"pH 7.4, catalytic domain",Km,2.6 ± 0.1 µM
CC(C)C[C@H](NC(=O)[C@@H](NC(=O)[C@H](CC(C)C)NC(=O)[C@H](CS)NC(=O)CNS(=O)(=O)c1cccc2c(N(C)C)cccc12)C(C)C)C(=O)O,"geranylgeranyltransferase type-I (Rattus norvegicus, UniProt P53610+Q04631)","substrate, fluorescence","30 °C, with: SmgGDS-607 5 µM and GGPP 10 µM",Km,3.1 ± 1.7 µM

# Some of these lines once more:
Compound,target or system,assay,setting,endpoint,value
CC[C@H](C)[C@H](NC(=O)CNC(=O)[C@H](CCCNC(=N)N)NC(=O)[C@@H]1CCCN1C(=O)[C@H](CC(=O)O)NC(C)=O)C(=O)N[C@@H](Cc1ccc(OP(=O)(O)O)cc1)C(=O)N[C@@H](CC(=O)O)C(=O)N[C@@H](CCC(N)=O)C(=O)N[C@H](C(=O)N[C@@H](C)C(=O)NCC(N)=O)C(C)C,PTPN1,substrate,"pH 7.4, catalytic domain",Km,7.1 ± 0.4 µM
CC(C)C[C@H](NC(=O)[C@H](C)NC(=O)[C@H](CCCNC(=N)N)NC(=O)[C@H](CCCNC(=N)N)NC(=O)[C@H](CCCNC(=N)N)NC(=O)[C@H](C)NC(=O)[C@H](CC(C)C)NC(=O)[C@H](CCCNC(=N)N)NC(=O)[C@H](CO)NC(=O)[C@H](CCCCN)NC(=O)[C@H](CO)NC(=O)Cn1cc(COC(=O)[C@]2(C)C=C(C(=O)OC(C)(C)C)C(=O)CC2)nn1)C(=O)O,"MAPK14 (Homo sapiens, UniProt Q16539)","enzyme activity, inhibitor, D-SENSOR",0.2743 µM,normalized kinase activity,0.595
